Experimental data pooled from the literature.
Every numbered part comes from another study and shows a few of its results, in no order.

Set 1
Target: RNA binding protein fox-1 homolog 2, RRM domain, GST-SBP tag (RBFOX2, Homo sapiens, UniProt O43251-10, residues 100-194)
Method: RNA Bind-n-Seq
Form: RNA
Medium: in vitro
Tested at: 365 nM
Setting: natural RNA segment, single round, ends assumed
Baseline: no-protein control
Direction: higher = stronger binding
Quantity: RBNS enrichment (R)
Target sequence (chain): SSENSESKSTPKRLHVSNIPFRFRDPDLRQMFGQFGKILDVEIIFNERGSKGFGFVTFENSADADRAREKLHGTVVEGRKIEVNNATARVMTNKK
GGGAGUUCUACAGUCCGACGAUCAAAGUCACCUUGUUUCCUACAUGAUUUUAGUCAUACCCAAACGUCCUCAGAAUCCCUACAUCCUGCUUAGAACUGUGGCCGGCCUAAUCUGUCAAGAGGCUUGGCUCUUCUGGAAUUCUCGGGUGCCAA: 0.489
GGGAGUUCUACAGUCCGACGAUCAGAAAUUGAAUCUUGAUCAAUAUUUAAACCAAAGGGAAAAGGGAAAACCAAAACCAAACCAAAGUUCUUUGUUUUGCCUGGUUACGACAUUCAGUUUAUCUGUGUAAAUAUGGAAUUCUCGGGUGCCAA: 0.369
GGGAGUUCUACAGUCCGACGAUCAUGUCUAGAAUGGGCCAGCCACCUUGCAGUAAAAUCAAUGAGUUCUGAAGCAACCUUCAAUUUUCAUAAGCCAAGUCUUGGGUCCAGGGAACUCCACAGUGCUCCCACCCUGGAAUUCUCGGGUGCCAA: 0.376
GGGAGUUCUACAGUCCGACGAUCACAGAAGAUACAGUUGAGUUUGGCUCUUAAGAAAUCUGGAGAACUAUACCUGCUUCAGUGAAAUAAUUACAGAAUAUACUUAGAAAGGCAAAGUACAUUGUAAAAUAAAGUGGAAUUCUCGGGUGCCAA: 0.588
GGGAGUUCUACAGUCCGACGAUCGAUUAUCAUCUUGUGAGAAGAGAUGUUUAAACGUGGUAAAUCACUUCAUAUUACAAAACAGUUUUACACUUAAUAUGUUAACAUUGGGUGCAAUAAUUUAGUAGCAUUAGUGGAAUUCUCGGGUGCCAA: 0.344
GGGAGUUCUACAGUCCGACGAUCUGUCAAAGCGCUACCAGCCAGGGGCAGGCCCCUGAUGCCCGGAAGCUCCUGCGUGCAUCCCCGGGAUGACCAGACUCCCGGACUCCUCAGGCAGUGCCCUUUCCUCCCACUGGAAUUCUCGGGUGCCAA: 0.28
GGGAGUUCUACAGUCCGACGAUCAACACCCCCCGUGUUAAUAACUUGGUCUGAAAUCUGUUUUUAUGAGCCGGGCCCCCUGUGCCUCUAGUAUACUUGUAUUGACUCUCAUAGUUACCCUUUUAGUUUUACUGUGGAAUUCUCGGGUGCCAA: 0.282
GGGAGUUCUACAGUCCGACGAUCGUUUCUACUGUGUGUAAAUGGGAGUCGCUCUCAUUAGUCCCAUUGCACUGACAUCCAGCACCUGGACAUCUCCCCUGGUGUCAGCCCACUGGCUCCGGGUCUACAUGGUGUGGAAUUCUCGGGUGCCAA: 0.457

Set 2
Target: Interferon regulatory factor 5, full length, phosphomimetic (IRF5, Homo sapiens, UniProt Q13568-2, residues 1-514, S451D/S453D/S456D/S462D)
Method: protein-binding microarray
Form: double-stranded DNA, one strand shown
Medium: in vitro
Tested at: 940 nM top
Setting: 60-bp whole probe
Together with: salmon DNA 0.4 mg/ml
Baseline: random background probes
Direction: higher = stronger binding
Quantity: fitted relative affinity
Shared flanks, not repeated: GCCTAGCAC … GTCTTGATTCGCTTGACGCTGCTG
GACGGTATGCTTCTCCTGACGTGCTAG: 0.098 z-score
GACGATATCGGTACTGGAGACGTGCTA: 0.201 z-score
GACGGTCTCCTTCTCCTCACGTGCTAG: 0.408 z-score
ATTTTTTAGCTTCTCAATTAGTGCTAG: 0.628 z-score
GACGGACTGGGTTATCGGGACGTGCTA: -0.288 z-score
TCATTTTTTTCTTTTATACTGTGCTAG: 2.25 z-score
TTAGCTATCGGGTATCGATTAGTGCTA: 2.41 z-score
TTAGGACTGGACTTTCAGTTAGTGCTA: 0.0933 z-score
TCATTTCTGAATGTCCTACTGTGCTAG: 0.476 z-score
GACGGTTTCGGCTCCGGGACGTGCTAG: 8.76 z-score
TTAGGACTGGACTTTCGCTTAGTGCTA: 0.606 z-score
GACGGAATGGGACTGGGGACGTGCTAG: -0.344 z-score
TTAGAACGGAGACTGGATTAGTGCTAG: -0.0292 z-score
GTCCTTTTCTTTACTGATGGGTGCTAG: 1.14 z-score
GACGGTTCCCTTGTCCTGACGTGCTAG: 0.3 z-score
TACGGTTTCCTACTGCTGACGTGCTAG: 0.745 z-score
GGCGATATCAGTCTCGAGACGTGCTAG: 1.12 z-score
GACGACTTCAGTCTCGAGACGTGCTAG: 0.77 z-score
TTAGATTTCCGTTCCGATTAGTGCTAG: 1.06 z-score

Set 3
Target: RING finger protein unkempt homolog, zinc fingers 1-6, GST-SBP tag (UNK, Homo sapiens, UniProt Q9C0B0, residues 30-357)
UniProt Q9C0B0, sequence (30-357, looked up): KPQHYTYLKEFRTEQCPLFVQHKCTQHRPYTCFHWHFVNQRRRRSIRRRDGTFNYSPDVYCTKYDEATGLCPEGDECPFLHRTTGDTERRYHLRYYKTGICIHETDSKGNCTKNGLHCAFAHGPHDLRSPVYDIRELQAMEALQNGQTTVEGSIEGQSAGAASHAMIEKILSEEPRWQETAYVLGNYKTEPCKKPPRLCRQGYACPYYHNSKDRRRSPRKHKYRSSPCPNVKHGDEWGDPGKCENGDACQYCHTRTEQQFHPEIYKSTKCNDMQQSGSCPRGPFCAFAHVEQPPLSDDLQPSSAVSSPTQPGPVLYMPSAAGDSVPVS
Method: RNA Bind-n-Seq
Form: RNA
Medium: in vitro
Tested at: not given
Setting: RNA with constant flanks, human-mouse chimeric sites, ends assumed
Baseline: input RNA pool
Direction: higher = stronger binding
Quantity: bound/input enrichment
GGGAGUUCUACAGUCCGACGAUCCACAGAGGAGACCUCCUGUUCCUCACGAAUUUCCGGGAGGACCCCAUCAGAGCUGGUGAAAUAGUUGUUUUUAAGGUUGAAGGAAGAGACAUUCCGAUAGUUCACAGAGUAAUCAAGGUUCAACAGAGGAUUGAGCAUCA: 5.95 ratio
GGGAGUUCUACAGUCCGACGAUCAGAUUCCCCCUCCUGAGACCUCCUCCGAAGUUGGAGUCUCUUACAGAUGCCUCAUCCCCUGUUAGCGUUUUGGUCUGGACCACCCAGCCUUGGACGAUUCCCGCCAACCAGGCAAUUUGCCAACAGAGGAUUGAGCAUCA: 0.372 ratio
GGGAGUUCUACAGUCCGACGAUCAGUUCCAAACCACCAUCAGAAAUGAAGAUGAGAUUACCCAGACGAGCCAAAACAGCUGCGCUACAGAAAAGUAAACUUAACCUUGCACCAAUUUCUCAUGAAGAUACAAGUUAAGAGAGCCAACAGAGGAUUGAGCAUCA: 0.342 ratio
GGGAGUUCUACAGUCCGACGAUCGUAGCUGGCCAUUAGGAAAUGCUGGUAAUUUCAGUCACUUGCUGAUGACUUCUGAUGUCCCAGCAAAUGUUGGCAUUGUUGACUGCUGAGAAGAUACACUCGCAAGGCCACGUCUAAGGUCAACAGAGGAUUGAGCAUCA: 0.247 ratio
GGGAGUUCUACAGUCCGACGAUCUCUGGUCACACUCGUGUGUAUGGUGUUUGCUUUGUGGAUACUUCACUGGGCAAGUUUUUCAUAGGUCAGUUUUCGGAUGACCGCCACUGUUCCAGAUUUAGGACGCUAGUGGCUCACUAUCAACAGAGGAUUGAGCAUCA: 0.315 ratio
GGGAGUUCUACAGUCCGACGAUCAGGAGGAGGUUAAAGGGUGAGAGUGGGAUGGAGGAUUGUGUCAUGGCUCUGGAGACACUGUUCAGUGUCCUGCUUUCUCUGUGCAGACUGAUGGCCCCCUACACACCCUUUCUGACUGAGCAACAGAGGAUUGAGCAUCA: 0.135 ratio
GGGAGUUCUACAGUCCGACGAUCUCUUAACGUCCAUUUAAAACUUAUUUUUAUAGCUAGAUAAAUAUUGUUAGUCUUAGACAAUAGCUCACAUUUUUUGAGAAGCAUGCCCUCCCUGUCCAUUUGUCUUAUAACAUGACCCAGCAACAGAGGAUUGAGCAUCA: 70.9 ratio
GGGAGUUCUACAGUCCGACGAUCAAAGGCAAAAAGGGCAGCUGUGUCAUUUCAUAAGUAACUCUGGGGGAGGGAAAUUCUGUUCUUUUGUUUAAUUUUCCCCCAGAUAAAGCCAAAGUGUGUGUUGAAGAACUGAGAAAAAAUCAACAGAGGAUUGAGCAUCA: 0.308 ratio

Set 4
Target: PABPC1L2, full length, GST fusion (mouse, UniProt A0ABA7IW68)
Method: RNAcompete
Form: RNA
Medium: in vitro
Tested at: 20 nM
Setting: 7-mer, probes averaged, single round
Baseline: mean of 7-mers
Direction: higher = stronger binding
Quantity: 7-mer Z-score
Target sequence (chain): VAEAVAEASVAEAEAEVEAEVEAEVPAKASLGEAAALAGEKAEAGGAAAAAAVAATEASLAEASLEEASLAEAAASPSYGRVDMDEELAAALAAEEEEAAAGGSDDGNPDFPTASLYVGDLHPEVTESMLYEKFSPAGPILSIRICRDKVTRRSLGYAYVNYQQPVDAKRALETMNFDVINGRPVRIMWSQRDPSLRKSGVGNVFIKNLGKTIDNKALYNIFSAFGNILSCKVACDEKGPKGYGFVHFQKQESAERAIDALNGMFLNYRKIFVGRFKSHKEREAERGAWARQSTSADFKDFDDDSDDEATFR
UUUAACA: -0.13
UGGUUCG: -0.296
UUAUGUC: -0.344
CUGAAUG: -0.231
AUGAAAA: 3.01
CGAAAGU: -0.00652
UAAGUCC: -0.369
AUAUUCG: -0.266
GCUCAGU: -0.168
AUCCUGU: -0.432
GAGCUAG: -0.0935
ACGGCUC: -0.0844
CAAACCG: -0.00108
ACCCCCG: -0.539
GUCCAGG: -0.0518
GCAUAGC: -0.257
CACGUGG: -0.00833
AUGAUUU: -0.0935
CUAUAGG: -0.175
CUCCACU: -0.378
GACGAAC: -0.0101
UUGAGGC: 0.0388
AUAAGCA: 0.0497

Excerpt of the above (set 4):
GCAUAGC: -0.257
GACGAAC: -0.0101
ACGGCUC: -0.0844
UAAGUCC: -0.369
UUUAACA: -0.13
GAGCUAG: -0.0935
CACGUGG: -0.00833
AUAAGCA: 0.0497
CUAUAGG: -0.175
